Assay results from different studies.
Protocols differ between the studies behind these lines.
HDAC1: Histone deacetylase 1 (HDAC1, Homo sapiens, UniProt Q13547)
Sequence of UniProt Q13547 (whole entry, looked up): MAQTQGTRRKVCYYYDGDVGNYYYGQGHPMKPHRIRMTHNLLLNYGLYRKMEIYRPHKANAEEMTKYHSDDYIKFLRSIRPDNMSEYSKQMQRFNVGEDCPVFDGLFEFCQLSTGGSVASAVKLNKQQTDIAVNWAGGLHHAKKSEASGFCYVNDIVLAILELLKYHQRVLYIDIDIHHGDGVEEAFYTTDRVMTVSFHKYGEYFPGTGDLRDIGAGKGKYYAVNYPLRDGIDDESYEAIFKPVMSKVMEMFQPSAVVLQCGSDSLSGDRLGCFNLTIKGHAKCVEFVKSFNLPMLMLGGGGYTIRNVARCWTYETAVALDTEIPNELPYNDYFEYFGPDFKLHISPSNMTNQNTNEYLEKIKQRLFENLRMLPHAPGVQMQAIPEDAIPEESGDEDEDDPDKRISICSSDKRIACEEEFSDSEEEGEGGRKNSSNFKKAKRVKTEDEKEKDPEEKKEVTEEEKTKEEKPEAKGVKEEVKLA
SIRT6: NAD-dependent protein deacylase sirtuin-6 (SIRT6, Homo sapiens, UniProt Q8N6T7)
Sequence of UniProt Q8N6T7 (whole entry, looked up): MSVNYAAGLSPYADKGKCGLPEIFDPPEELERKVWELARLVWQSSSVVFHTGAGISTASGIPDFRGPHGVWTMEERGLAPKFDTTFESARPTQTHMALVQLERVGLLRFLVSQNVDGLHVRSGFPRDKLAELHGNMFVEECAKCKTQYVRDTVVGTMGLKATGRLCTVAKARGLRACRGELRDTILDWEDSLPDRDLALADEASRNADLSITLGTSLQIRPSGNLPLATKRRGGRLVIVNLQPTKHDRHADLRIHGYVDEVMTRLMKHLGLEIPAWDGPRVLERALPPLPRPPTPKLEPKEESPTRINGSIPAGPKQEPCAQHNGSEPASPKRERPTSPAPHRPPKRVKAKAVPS
Sequence of UniProt Q16644 (whole entry, looked up): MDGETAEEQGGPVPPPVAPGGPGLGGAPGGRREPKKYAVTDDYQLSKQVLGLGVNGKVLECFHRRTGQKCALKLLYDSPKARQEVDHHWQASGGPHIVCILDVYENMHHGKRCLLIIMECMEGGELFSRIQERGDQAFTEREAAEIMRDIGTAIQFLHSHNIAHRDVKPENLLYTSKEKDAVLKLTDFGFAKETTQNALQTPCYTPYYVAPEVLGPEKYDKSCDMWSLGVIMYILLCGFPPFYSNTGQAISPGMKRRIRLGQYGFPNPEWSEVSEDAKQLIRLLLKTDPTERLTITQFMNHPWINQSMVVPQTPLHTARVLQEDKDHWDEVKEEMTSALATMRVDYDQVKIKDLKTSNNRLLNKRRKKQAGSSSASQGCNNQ
Sequence of UniProt Q9NVM4 (whole entry, looked up): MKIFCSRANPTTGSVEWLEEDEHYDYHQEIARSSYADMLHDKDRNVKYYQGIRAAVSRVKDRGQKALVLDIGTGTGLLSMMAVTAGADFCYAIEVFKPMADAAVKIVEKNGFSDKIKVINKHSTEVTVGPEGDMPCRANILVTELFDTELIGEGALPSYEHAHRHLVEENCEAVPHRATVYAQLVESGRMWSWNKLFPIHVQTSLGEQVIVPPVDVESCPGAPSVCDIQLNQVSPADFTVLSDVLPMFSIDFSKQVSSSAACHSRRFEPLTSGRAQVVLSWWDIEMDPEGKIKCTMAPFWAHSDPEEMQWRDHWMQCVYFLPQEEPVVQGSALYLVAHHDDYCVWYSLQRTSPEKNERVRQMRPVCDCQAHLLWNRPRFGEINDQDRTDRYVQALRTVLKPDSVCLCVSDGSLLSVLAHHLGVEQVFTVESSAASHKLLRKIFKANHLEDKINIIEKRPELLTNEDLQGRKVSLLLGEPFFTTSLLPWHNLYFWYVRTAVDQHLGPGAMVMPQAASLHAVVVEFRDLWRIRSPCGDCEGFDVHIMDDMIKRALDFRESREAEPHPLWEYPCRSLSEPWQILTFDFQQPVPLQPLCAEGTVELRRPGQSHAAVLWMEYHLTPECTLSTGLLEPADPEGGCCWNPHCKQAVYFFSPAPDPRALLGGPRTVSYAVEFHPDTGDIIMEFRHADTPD
Sequence of UniProt P28336 (whole entry, looked up): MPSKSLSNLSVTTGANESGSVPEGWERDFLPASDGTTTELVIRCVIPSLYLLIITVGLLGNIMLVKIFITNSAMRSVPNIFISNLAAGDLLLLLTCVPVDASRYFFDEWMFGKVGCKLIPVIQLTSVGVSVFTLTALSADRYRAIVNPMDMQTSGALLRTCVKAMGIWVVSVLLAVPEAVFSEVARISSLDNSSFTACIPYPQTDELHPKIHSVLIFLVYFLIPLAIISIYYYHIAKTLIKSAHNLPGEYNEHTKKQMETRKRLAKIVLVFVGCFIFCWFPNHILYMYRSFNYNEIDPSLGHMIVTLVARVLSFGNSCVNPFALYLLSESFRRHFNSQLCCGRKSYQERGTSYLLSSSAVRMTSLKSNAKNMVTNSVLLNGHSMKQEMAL
Sequence of UniProt P43358 (whole entry, looked up): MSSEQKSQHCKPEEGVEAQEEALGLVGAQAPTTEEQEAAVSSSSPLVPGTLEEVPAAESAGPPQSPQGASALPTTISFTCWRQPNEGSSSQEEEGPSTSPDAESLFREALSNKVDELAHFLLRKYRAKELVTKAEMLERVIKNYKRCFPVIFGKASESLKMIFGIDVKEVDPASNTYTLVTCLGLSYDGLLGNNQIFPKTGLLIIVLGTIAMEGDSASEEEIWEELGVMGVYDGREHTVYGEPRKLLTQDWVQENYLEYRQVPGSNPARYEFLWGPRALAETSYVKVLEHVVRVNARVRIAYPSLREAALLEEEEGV
Sequence of UniProt P07711 (whole entry, looked up): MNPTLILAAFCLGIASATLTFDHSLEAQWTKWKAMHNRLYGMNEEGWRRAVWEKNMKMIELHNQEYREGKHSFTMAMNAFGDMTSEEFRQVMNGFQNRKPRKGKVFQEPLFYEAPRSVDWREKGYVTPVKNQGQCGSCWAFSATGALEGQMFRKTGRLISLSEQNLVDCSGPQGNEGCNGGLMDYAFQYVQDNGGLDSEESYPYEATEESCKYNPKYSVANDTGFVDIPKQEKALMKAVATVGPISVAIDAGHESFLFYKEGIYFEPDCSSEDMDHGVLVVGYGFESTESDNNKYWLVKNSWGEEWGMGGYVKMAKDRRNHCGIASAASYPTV
Sequence of UniProt P31391 (whole entry, looked up): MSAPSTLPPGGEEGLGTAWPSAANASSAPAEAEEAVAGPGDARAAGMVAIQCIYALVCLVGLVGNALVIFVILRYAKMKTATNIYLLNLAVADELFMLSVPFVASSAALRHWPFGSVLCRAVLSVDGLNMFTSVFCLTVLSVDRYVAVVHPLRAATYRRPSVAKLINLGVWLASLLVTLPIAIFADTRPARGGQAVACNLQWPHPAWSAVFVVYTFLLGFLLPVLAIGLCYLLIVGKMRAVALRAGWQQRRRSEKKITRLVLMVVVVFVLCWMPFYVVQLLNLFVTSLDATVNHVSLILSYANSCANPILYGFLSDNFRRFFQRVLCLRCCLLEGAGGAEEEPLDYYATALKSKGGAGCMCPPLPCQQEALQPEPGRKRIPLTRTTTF
Sequence of UniProt Q15303 (whole entry, looked up): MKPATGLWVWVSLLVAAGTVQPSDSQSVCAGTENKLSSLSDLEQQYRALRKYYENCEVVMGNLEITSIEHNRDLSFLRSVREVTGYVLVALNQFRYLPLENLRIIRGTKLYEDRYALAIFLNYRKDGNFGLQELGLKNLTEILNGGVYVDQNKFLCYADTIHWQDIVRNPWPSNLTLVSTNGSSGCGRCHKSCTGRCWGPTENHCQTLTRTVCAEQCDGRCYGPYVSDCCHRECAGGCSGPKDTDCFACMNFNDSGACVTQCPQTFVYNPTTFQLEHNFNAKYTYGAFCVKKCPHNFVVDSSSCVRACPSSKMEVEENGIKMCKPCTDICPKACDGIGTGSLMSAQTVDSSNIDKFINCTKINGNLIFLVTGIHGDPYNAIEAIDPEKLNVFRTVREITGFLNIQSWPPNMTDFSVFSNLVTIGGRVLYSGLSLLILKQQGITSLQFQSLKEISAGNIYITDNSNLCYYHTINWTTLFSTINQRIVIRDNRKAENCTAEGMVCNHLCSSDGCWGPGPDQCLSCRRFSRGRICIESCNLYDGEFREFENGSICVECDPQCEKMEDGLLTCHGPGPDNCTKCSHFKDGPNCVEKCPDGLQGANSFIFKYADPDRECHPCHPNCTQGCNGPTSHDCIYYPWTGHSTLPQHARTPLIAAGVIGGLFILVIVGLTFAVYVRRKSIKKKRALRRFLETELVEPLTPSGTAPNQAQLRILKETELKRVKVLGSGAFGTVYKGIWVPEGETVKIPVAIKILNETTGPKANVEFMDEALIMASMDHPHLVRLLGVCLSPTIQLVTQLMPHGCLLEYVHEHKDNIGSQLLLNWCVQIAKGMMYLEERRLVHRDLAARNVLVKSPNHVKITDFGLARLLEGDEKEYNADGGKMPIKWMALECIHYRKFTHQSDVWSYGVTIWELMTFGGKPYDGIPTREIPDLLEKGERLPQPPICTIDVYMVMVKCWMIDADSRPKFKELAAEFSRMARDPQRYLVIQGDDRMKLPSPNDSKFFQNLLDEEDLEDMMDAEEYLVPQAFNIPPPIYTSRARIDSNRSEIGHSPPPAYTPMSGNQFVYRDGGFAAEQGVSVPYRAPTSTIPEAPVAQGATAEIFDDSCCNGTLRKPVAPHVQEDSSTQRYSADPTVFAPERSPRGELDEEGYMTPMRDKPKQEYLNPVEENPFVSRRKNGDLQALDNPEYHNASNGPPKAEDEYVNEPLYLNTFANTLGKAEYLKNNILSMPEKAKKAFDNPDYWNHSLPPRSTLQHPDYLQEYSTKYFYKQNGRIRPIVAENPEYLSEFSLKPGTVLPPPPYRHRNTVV

Compound | target | test | system | conditions | inhibition
N#Cc1ccnc(N2C(=O)CC[C@H]2C(=O)N(c2cncc(F)c2)[C@H](C(=O)NC2CC(F)(F)C2)c2ccccc2Cl)c1 | L-lactate dehydrogenase A chain (LDHA, Homo sapiens, UniProt P00338) | enzyme activity |  | 100 µM, forward and reverse reactions | no inhibition
Cc1c(COc2cc(OCc3cccc(C#N)c3)c(CN3CCCC[C@@H]3C(=O)O)cc2Cl)cccc1-c1cccc(OCc2ccc(C(=O)NO)cc2)c1 | HDAC1 | enzyme activity, inhibitor |  | 1 µM | 41.6%
O=C1c2sc(-c3ccc(N4CCC(F)C4)nc3F)nc2CCN1c1cccnc1 (centres unmarked) | Somatostatin receptor type 4 (SSTR4, Homo sapiens, UniProt P31391) | ligand displacement, radioligand |  | 1 µM | -4%
Nc1ccc(C(=O)NOCc2ccccc2)cc1[N+](=O)[O-] | SIRT6 | enzyme activity, inhibitor, fluorescence |  | 100 µM | 54.9%
C/C=C/C(=O)Nc1ccc2nc(NCCCCCN(C)C)nc(NCCCCCCN(C)C)c2c1 | Protein arginine N-methyltransferase 7 (PRMT7, Homo sapiens, UniProt Q9NVM4) | enzyme activity, inhibitor, radiometric |  | 10 µM | 30%
Cc1ccc(CNC(=O)[C@H](CCc2ccccc2)NC(=O)[C@H](CC(=O)NCC(C)(C)C)NC(=O)CCc2cccc(F)c2)cc1 | Procathepsin L (CTSL, Homo sapiens, UniProt P07711) | enzyme activity, inhibitor |  | 100 µM | 18%
Cc1c(COc2cc(OCc3cccc(C#N)c3)c(CNCCO)cc2Cl)cccc1-c1cccc(OCCCCCC(=O)NO)c1 | HDAC1 | enzyme activity, inhibitor |  | 1 µM | 72.6%
COc1cc(OC)c(F)c(/C=C/c2cnc3ccn(S(=O)(=O)c4cn(CCF)cn4)c3n2)c1F | Receptor tyrosine-protein kinase erbB-4 (ERBB4, Homo sapiens, UniProt Q15303) |  |  | 10 nM | 5%
C=CC(=O)Nc1cccc(-c2cnc3[nH]cc(C(=O)NC(C)(C)C)c3n2)c1 | MAP kinase-activated protein kinase 3 (MAPKAPK3, Homo sapiens, UniProt Q16644) | enzyme activity, inhibitor |  | 0.1 µM | 1%
CCCCCCCCCCCCCC(=S)NCCCC[C@H](NS(C)(=O)=O)C(=O)N[C@@H](C)C(=O)N[C@@H](CCCNC(=N)N)C(N)=O | SIRT6 | enzyme activity, inhibitor |  | 10 µM | 41%
C[Si](C)(C)C[C@H](CN)CC(=O)O | Neuromedin-B receptor (NMBR, Homo sapiens, UniProt P28336) | cell-free assay, inhibitor |  | 250 µM | 4%
N=C(N)NCCCC(NC(=O)C(CC(=O)NO)Cc1ccc2ccccc2c1)C(=O)NC(Cc1c[nH]c2ccccc12)C(=O)NC(CCC(=O)O)C(N)=O (centres unmarked) | Macrophage metalloelastase (MMP12, Homo sapiens, UniProt P39900) |  |  | 1 µM | 98%
CC[C@H](C)[C@@H]1NC(=O)[C@H](Cc2ccccc2)NC(=O)CCSCc2cccc(c2)CSCCNC(=O)[C@H](Cc2c[nH]cn2)NC(=O)[C@H](Cc2ccc(O)cc2)NC(=O)[C@H](CC(=O)O)NC(=O)[C@H](Cc2ccc(F)cc2)NC(=O)[C@H](CC(C)C)NC(=O)[C@H](CCCCN)NC1=O | Melanoma-associated antigen 4, MHD; with RAD18 (Homo sapiens, UniProt P43358) | protein-protein interaction, NanoBRET | HEK293 | 20 µM | > 50%
C[Si]1(C[C@H](CN)CC(=O)O)CCCC1 | GABA transporter, rat | binding, radioligand binding |  | 70 µM, added: [3H]GABA | -7%
CCCCCCN(O)C(=O)CCCCC[C@@H]1NC(=O)CCSCc2cccc(n2)CSCCNC(=O)[C@H](CCc2ccccc2)NC(=O)[C@H](CC)NC1=O | HDAC1 | enzyme activity, inhibitor, fluorogenic |  | 30 µM | 20%
O=C(O)CCNC(=S)NCCCC[C@H](NS(=O)(=O)c1cccc(F)c1)C(=O)N[C@@H](Cc1c[nH]c2ccccc12)C(=O)NC1CCC1 | SIRT6 | demyristoylase activity |  | 10 µM, added: myristoylated peptide substrate and NAD+ 500 µM | < 0%
C=CC(=O)N1Cc2nc(-c3cc(-c4cc(Cl)cnc4Cl)c(F)cc3F)n(-c3ccncn3)c2C1 | Phosphatidylinositol 4-kinase alpha (PI4KA, Homo sapiens, UniProt P42356) | cell-free assay, inhibitor |  | 1 µM | -0.5%

A few entries again:
Compound | target | test | system | conditions | inhibition
CCCCCCN(O)C(=O)CCCCC[C@@H]1NC(=O)CCSCc2cccc(n2)CSCCNC(=O)[C@H](CCc2ccccc2)NC(=O)[C@H](CC)NC1=O | HDAC1 | enzyme activity, inhibitor, fluorogenic |  | 30 µM | 20%
O=C(O)CCNC(=S)NCCCC[C@H](NS(=O)(=O)c1cccc(F)c1)C(=O)N[C@@H](Cc1c[nH]c2ccccc12)C(=O)NC1CCC1 | SIRT6 | demyristoylase activity |  | 10 µM, added: myristoylated peptide substrate and NAD+ 500 µM | < 0%
